# Experimental data from different studies.
# Numbered parts are unrelated; each lists some results of a single study. Changes are numbered by the printed parent chain.

# Series 1
# Target: Hepatocyte nuclear factor 3-beta, forkhead domain (FOXA2, Homo sapiens, UniProt Q9Y261, residues 142-269)
# Technique: protein-binding microarray
# Form: double-stranded DNA, one strand shown
# Medium: in vitro
# Concentration: not given
# Notes: k-mer, scored over probes, only values ≥0.25
# Reading: higher = stronger binding
# Target sequence (chain): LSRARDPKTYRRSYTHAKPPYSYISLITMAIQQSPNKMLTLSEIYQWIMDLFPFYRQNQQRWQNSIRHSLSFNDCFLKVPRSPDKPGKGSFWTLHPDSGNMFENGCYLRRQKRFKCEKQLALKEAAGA
Sequence,E-score
TAATGTAA,0.362
ACATAGAT,0.276
TATAACAA,0.363
ACTGTAAA,0.253
ACTAATTA,0.311
ACAGCTAT,0.252
AAAAGTAT,0.251
ATGTAAAA,0.273
AACACTAG,0.279
TATACCGA,0.324
ACAGATAT,0.297
ATTACATG,0.26
ATAGAACA,0.265
AACAAATC,0.315
ACCATATA,0.433
ACGATATG,0.301
CATCATAC,0.328
GATATTGA,0.253
AACAGACA,0.317
TAGAAATA,0.276
ATTGTCAA,0.31
AATGCAAA,0.307
ATGATTAG,0.27
ACAAATGG,0.259
GTATGACA,0.299

# Series 2
# Target: Histone acetyltransferase KAT6A, both winged helices, GST fusion (KAT6A, Homo sapiens, UniProt Q92794, residues 1-181)
# Technique: protein binding microarray
# Form: double-stranded DNA, one strand shown
# Medium: in vitro
# Concentration: not given
# Notes: 8-mer, flanks averaged, mean of 2 arrays, mostly near background
# Relative to: not given
# Reading: higher = stronger binding
# Construct (chain): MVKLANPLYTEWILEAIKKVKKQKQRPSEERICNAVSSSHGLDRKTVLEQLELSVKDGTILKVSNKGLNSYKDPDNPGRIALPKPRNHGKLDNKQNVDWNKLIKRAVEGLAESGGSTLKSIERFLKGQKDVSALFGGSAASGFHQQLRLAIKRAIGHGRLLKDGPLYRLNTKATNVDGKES
Sequence,E-score
CGGCGCAG,0.289
CGCCAACC,0.113
ATCCATCC,-0.0768
ATATGCGG,0.252
ACCGAATA,-0.174
CCTTGGGA,-0.111
CGGTACGA,0.093
ACAGTCCG,0.0819
AAAGAAAC,-0.00971
ACCCTAAA,-0.156
CTTGCGCC,0.286
ACAGGGGT,-0.181
CGAATCGC,0.118
ATGGGCCC,-0.0805
TCCCGCCA,0.153
GTCGTAAA,0.0291
AGCCACCA,-0.147
ATGACAAC,-0.084
GCTGCTCC,0.0655
ATATACCA,-0.184
AGGATCCT,-0.192
AAAATTCG,-0.0349
ATGAGTTG,-0.0752

# Series 3
# Target: RNA binding protein fox-1 homolog 2, RRM domain, GST-SBP tag (RBFOX2, Homo sapiens, UniProt O43251-10, residues 100-194)
# Technique: RNA Bind-n-Seq
# Form: RNA
# Medium: in vitro
# Concentration: 365 nM
# Notes: natural RNA segment, single round, ends assumed
# Relative to: no-protein control
# Reading: higher = stronger binding
# Constant ends, left off below: GGGAGUUCUACAGUCCGACGAUC … UGGAAUUCUCGGGUGCCAA
# Construct (chain): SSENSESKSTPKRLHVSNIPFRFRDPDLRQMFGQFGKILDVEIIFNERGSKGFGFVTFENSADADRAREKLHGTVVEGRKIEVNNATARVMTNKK
Sequence,RBNS enrichment (R)
AAGCCUGGGGAGGGGUUCCUCAGUGCAGGAGUUGGGGACAGGCUGGGGAUCCAAGCUGCUUGAGGGGGUCAACCUUGGACCAAAGUUGCCUUAAGCCUGUGGUAAAAGGG,0.623
AGUCAGAAAAACCAGAGCGACUGUUAAGGGCUUUGGCCAGCUUUCUAGGCAGCGAGUGCAGGUGACAACGGUGGUCUAGGGAGAGUUACUGGUAUGGAACACAGACAUGG,0.638
AGGUCUGGGUUUCGUUUUUACCCAGACCCUGGCACUCCCUGUCCACUGUGUGUGUGAUCAUGCUGGGAGGGGUAACUGCUUGGAAUUAAAAGGUUGCACUGGGUCCCUAA,0.452
AAUUUUUGGACCACAAACCACCCUGCAGCUUCUUAAACCUUUCCCCAACCUACCACCCAAAAGAACCUUUUGGCCAGUUGUUAAAAGGACAGGAAUGAUUUUAUUCUGUA,0.319
UAGCCUGGGCCCCCUCUGUGCACACAGUUCAGGCCUGCCCAGCUUCUUAUGGGCAAGCCACCAUCCCACUCUCGUCUCCCUGAGCUGUCUGGUUCUGCGGACCCAGGAAG,0.324
AGCAGUGUCUCCUGCCAGAACUCCUCACCCAGGAUGAAUGUGUUUACUCCACGCUGUAUAUCUUUCCAUGCUCCGGCUGCCUGGACCAGUAAAUAAAAUGGAUGUAAUAU,0.407
UUAAAAUUUUAAAGCAAUCUUGGCAGACUAAAACAAGUACAUCUGUACAUGACUGUAUAAUUACGAUUAUAGUACCACUGCACAUCAUGUUUUUUUUUUUAAGACAAAAA,0.336
GAAUGGAGGCUUACUAACCAGGUAAGCCUUCUAUGCAUCCACACCAAAAUCCUGCAGAAUGUAAGUAAGCUCUGCUUUAUAAGAUGGGUUCACCUUCAUCGCAGACUGAA,0.319
UUUUUAAAAAGUGUUAAGAGUGUCUGUCUGUCUGUCUGUCUGUCUGUCUGUCUGUACGUUUAAUUGAUAGCACCUCUGCCGUGUGUCAUCAACUACUAGACAGCCAGGCU,0.456
GUUUUCUUACCAAGCAUCCCUGACCUCCUGGAGACACCACCUGCUUUCCGGGCGGCACUGUGAUGGGAGCUGGUGGCGACUGAGUCCUUCUGUACGUGCAACUGGGAAAC,1.57
UUCCCUAAUCCCCUUUUGAUUUGUUUCCAAAAUAAAAGAGAAUCUUUUCUUCCCUACCCCAGGCUUCCCCAGGCAUUCUCUUGGGAACACAGAAGCAUCAAGGGAGCCCA,0.581
AAAAAAAAUCAUGUUUUAAAUGUUAUGAUUUUGUGUUAGGCUGAAUUUAUAGCUGUCCUUGACCUCGGGUUGGACACACCUGCAACAUGAAUAGUAAGACCUAAUAAUUC,0.462

# Series 4
# Target: Interferon regulatory factor 5, full length, phosphomimetic (IRF5, Homo sapiens, UniProt Q13568-2, residues 1-514, K96S/S451D/S453D/S456D/S462D)
# Technique: protein-binding microarray
# Form: double-stranded DNA, one strand shown
# Medium: in vitro
# Concentration: 250 nM
# Notes: 60-bp whole probe
# With: salmon DNA 0.4 mg/ml
# Relative to: random background probes
# Reading: higher = stronger binding
# Constant ends, left off below: GCCTAGCAC … GTCTTGATTCGCTTGACGCTGCTG
Sequence,log fluorescence
AAGCTCCTATCTTATGATATAGTGCTA,0.279 z-score
GACGGGTCCCTTTTCCTGACGTGCTAG,0.0462 z-score
GACGATCTCAGTTTCGAGCCGTGCTAG,3.62 z-score
GAAGGTATCCTTCTCCTGACGTGCTAG,0.14 z-score
GACTGACTGGACTATCGGGACGTGCTA,0.896 z-score
GACGGTATCGGCTTTCGGGACGTGCTA,4.61 z-score
GACGAACTGATACTGGAGACGTGCTAG,0.267 z-score
GACGATTTCGGGACCGGAGACGTGCTA,2 z-score
GACGGACTGGTGTATCGGGACGTGCTA,-0.0858 z-score
TTAGATCTCAGACTGGATTCGTGCTAG,-0.258 z-score
GACGGACTGCTTACCCTGACGTGCTAG,-0.326 z-score
TTAGGTCTCAGTCTCGATTAGTGCTAG,0.577 z-score
GACGGTTTCGGTTTCGGGACGTGCTAG,10.3 z-score
TACTAGAGTAAAACCCTGGCGTGCTAG,-0.12 z-score
GACGGACTGGGGTATTGGGACGTGCTA,-0.657 z-score
TTAGGTTTCCTTATCCTTCAGTGCTAG,0.999 z-score
GATTTCTTCCCTGTGAAAACGTGCTAG,0.905 z-score
TTAGGACAGGGGTATCGGTTAGTGCTA,2.56 z-score
GACGATCTCAGGCTGGAGACGTGCTAG,-0.55 z-score
GACGGACTGGGTCTCGAGACGTGCTAG,-0.548 z-score

# Series 5
# Target: ABI1, truncated, D143A, DHFR fusion (Arabidopsis thaliana)
# Technique: DHFR PCA, deep sequencing
# Medium: yeast
# Notes: methotrexate growth selection, single substitutions
# With: (+)-ABA 1.4 µM
# Relative to: wild-type fitted maximum
# Reading: higher = stronger binding
# Starting sequence: PYL1, truncated, DHFR fusion (Arabidopsis thaliana); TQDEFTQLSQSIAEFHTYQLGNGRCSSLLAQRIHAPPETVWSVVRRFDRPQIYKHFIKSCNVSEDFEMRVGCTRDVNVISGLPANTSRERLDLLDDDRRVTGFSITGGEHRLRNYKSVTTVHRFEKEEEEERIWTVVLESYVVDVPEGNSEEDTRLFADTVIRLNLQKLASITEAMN; partner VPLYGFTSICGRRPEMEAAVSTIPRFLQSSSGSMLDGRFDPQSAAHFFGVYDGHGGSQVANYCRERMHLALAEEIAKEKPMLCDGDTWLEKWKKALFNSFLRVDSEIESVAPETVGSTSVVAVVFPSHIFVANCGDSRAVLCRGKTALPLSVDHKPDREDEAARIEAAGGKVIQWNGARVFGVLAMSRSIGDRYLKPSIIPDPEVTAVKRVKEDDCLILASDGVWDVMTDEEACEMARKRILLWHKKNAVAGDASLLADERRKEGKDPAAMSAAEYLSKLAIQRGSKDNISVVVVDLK
Change,relative binding score [%]
V137L,0.0465
R155H,-1.63
H110W,69.3
E152C,25.6
N149C,31.7
V142P,-6.16
F47K,-4.92
S150Q,5.8
E125A,66
Y18F,-2.39
R155C,30.9
C72T,30.5
D95W,-18.7
T160Q,-0.00547
W41V,1.55
Y141L,-9.22
G21H,35.1
R49M,48.6
V137M,0.356
I79R,5.47
S11E,73.3
G102K,-2.56
Q31F,-14.2
I105Q,-17.9
E131N,73.8

# Series 6
# Target: CCNE1, cyclin fold, Cln2 fusion (human)
# Technique: yeast growth competition, sequencing
# Medium: yeast
# Notes: strong parent motif
# Relative to: not given
# Reading: higher = stronger binding
# Starting sequence: E2F1 docking peptide (human); PPVKRRLDLETDH; partner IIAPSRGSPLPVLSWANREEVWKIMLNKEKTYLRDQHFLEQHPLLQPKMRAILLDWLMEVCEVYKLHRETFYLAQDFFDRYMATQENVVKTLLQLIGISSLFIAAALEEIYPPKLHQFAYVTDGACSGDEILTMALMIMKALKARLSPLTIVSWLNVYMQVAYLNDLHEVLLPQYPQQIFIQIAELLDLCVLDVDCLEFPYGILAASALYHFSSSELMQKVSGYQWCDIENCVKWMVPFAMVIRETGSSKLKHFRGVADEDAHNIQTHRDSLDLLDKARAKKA
Change,normalised enrichment score
PMVKRRLDLETDH [P2M],0.424
PPVKRRLDLLTDH [E10L],1.05
PPVKDRLDLETDH [R5D],0.273
PPPKRRLDLETDH [V3P],0.747
PPVKRRIDLETDH [L7I],0.438
PPVKRRLDLETDN [H13N],1.85
PPVKRRLDLEEDH [T11E],1.78
PPVLRRLDLETDH [K4L],0.485
PPVKRRLDLEADH [T11A],1.72
PPVHRRLDLETDH [K4H],0.533
PPVKRRWDLETDH [L7W],0.687
PPVKRRLDLECDH [T11C],2.22
PPVMRRLDLETDH [K4M],1.85
PPVVRRLDLETDH [K4V],2.9
PPVKRRLDLTTDH [E10T],0.97
PPCKRRLDLETDH [V3C],2.23
PPVKRRPDLETDH [L7P],0.339
PPVKRRLTLETDH [D8T],1.82
PPVKRRLYLETDH [D8Y],3.28
RPVKRRLDLETDH [P1R],1
PPVKRSLDLETDH [R6S],-0.226
PWVKRRLDLETDH [P2W],0.911
PPVKRRLDLSTDH [E10S],1.27
PPVKARADLETDH [R5A L7A],-0.381
